Experimental data pooled from the literature.
Each numbered part is a random draw from the data of one study; scales do not carry over between parts.

Study 1
Target: Interferon regulatory factor 5, full length, phosphomimetic (IRF5, Homo sapiens, UniProt Q13568-2, residues 1-514, K96S/S451D/S453D/S456D/S462D)
Technique: protein-binding microarray
Molecule type: double-stranded DNA, one strand shown
Medium: in vitro
Concentration: 250 nM
Notes: 60-bp whole probe
Added: salmon DNA 0.4 mg/ml
Baseline: random background probes
Reading: higher = stronger binding
| Strand | log fluorescence [z-score] |
| --- | --- |
| GCCTAGCACTCACGGCTCGTTATCCTACTGTGCTAGGTCTTGATTCGCTTGACGCTGCTG | -0.29 |
| GCCTAGCACAGGGTCCCGCGATTCGACACGTGCTAGGTCTTGATTCGCTTGACGCTGCTG | -0.684 |
| GCCTAGCACTTAGATTCCAGTATCGATTAGTGCTAGGTCTTGATTCGCTTGACGCTGCTG | 7.06 |

Study 2
Target: Histone acetyltransferase KAT6A, winged helix 1, GST fusion (KAT6A, Homo sapiens, UniProt Q92794, residues 1-85)
Technique: protein binding microarray
Molecule type: double-stranded DNA, one strand shown
Medium: in vitro
Concentration: not given
Notes: 8-mer, flanks averaged, mean of 2 arrays, mostly near background
Baseline: not given
Reading: higher = stronger binding
Residues (chain): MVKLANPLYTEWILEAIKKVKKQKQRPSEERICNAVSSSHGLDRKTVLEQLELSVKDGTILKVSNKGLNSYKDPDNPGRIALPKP
| Strand | E-score |
| --- | --- |
| CCGCTGTC | 0.228 |
| ACATTGCT | -0.0258 |
| AGATAGAA | -0.168 |

Mixed results
FOXP2 N303T/S325N N-truncated, polyQ removed: Forkhead box protein P2, N-truncated, polyQ removed (FOXP2, Homo sapiens, UniProt O15409, residues 214-715, N303T/S325N)
Sequence of UniProt O15409 (214-715, unmodified, looked up): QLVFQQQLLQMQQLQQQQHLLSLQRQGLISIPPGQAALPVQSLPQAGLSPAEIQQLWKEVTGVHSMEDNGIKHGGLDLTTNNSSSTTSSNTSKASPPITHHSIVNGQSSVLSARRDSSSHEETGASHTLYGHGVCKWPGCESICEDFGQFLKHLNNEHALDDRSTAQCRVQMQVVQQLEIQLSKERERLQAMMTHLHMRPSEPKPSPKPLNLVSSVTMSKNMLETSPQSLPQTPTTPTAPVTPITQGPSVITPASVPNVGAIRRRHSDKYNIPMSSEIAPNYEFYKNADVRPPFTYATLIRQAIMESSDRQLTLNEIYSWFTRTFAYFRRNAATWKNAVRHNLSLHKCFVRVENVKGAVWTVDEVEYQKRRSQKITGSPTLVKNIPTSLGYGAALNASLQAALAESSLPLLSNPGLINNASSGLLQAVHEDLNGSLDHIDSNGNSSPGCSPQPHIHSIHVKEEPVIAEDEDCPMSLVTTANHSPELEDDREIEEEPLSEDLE
| Substance | target | assay | test system | setting | how to read | quantity | result |
| --- | --- | --- | --- | --- | --- | --- | --- |
| CGCCTGTTACGGCATCAGGGCTTTGGTTTGGGATGGCTGCTTGTTTGCCAATTGTTCCGGCGGTATGAC | FOXP2 N303T/S325N N-truncated, polyQ removed | MITOMI | double-stranded DNA, one strand shown, in vitro | not given, 69-bp whole dsDNA, apparent Ka, titration fit | baseline: unmutated reference site, higher = stronger binding | relative association constant | 0.0452 fold |
| PhoQ, residues 284 288 289 292 302 303 TLMATV | PhoP, residues 12 14 15 18 19 TPWLV (Escherichia coli, UniProt P23836) | Sort-seq, measured: YFP reporter | E. coli | PhoQ-PhoP variant library, added: 10 µM Mg2+ | baseline: high Mg2+ state, higher = stronger signaling | fold induction | 19.4 |
| CGCCTGTTACGGCATCAGGGCTTTGGTTTGGGATGGCTGCGTGTTTACCAATTGTTCCGGCGGTATGAC | FOXP2 N303T/S325N N-truncated, polyQ removed | MITOMI | double-stranded DNA, one strand shown, in vitro | not given, 69-bp whole dsDNA, apparent Ka, titration fit | baseline: unmutated reference site, higher = stronger binding | relative association constant | 0.395 fold |

A few entries again (study 2):
| Strand | E-score |
| --- | --- |
| ACATTGCT | -0.0258 |
